Measured values from different studies.
Every numbered part comes from another study and shows a few of its results, in no order.
Sequence of UniProt P16257 (whole entry, looked up): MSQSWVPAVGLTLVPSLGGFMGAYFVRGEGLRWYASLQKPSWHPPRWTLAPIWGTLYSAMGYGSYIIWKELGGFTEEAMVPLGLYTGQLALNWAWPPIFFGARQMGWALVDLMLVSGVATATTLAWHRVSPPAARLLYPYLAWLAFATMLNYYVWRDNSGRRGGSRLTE

Block 1
Organism: Sarcocystis neurona
Read-out: parasite growth
Tested at: 10 µM
Time: 96 h
Endpoint: inhibition
NS(=O)(=O)c1cc2c(cc1Cl)N=CNS2(=O)=O: -4.8%
Nc1nc2c(ncn2CCC(CO)CO)c(=O)[nH]1: -14.9%
Oc1ncnc2[nH]ncc12: -17.5%
CC[N+](C)(C)c1cccc(O)c1: -17.5%
Cc1cc2c(s1)Nc1ccccc1N=C2N1CCN(C)CC1: -7.2%
CC(C(O)c1ccc(O)cc1)N1CCC(Cc2ccccc2)CC1 (stereo not drawn): -5.8%
CO[C@@]1(NC(=O)Cc2cccs2)C(=O)N2C(C(=O)O)=C(COC(N)=O)CS[C@@H]21: -16.7%
COc1cc(C(=O)NS(=O)(=O)c2ccccc2C)ccc1Cc1cn(C)c2ccc(NC(=O)OC3CCCC3)cc12: -12.4%
CC(C)(C)NC(=O)[C@@H]1CN(Cc2cccnc2)CCN1C[C@@H](O)C[C@@H](Cc1ccccc1)C(=O)N[C@H]1c2ccccc2C[C@H]1O: -13.9%
CO[C@H]1/C=C/O[C@@]2(C)Oc3c(C)c(O)c4c(O)c(c(/C=N/N5CCN(C6CCCC6)CC5)c(O)c4c3C2=O)NC(=O)/C(C)=C\C=C\[C@H](C)[C@H](O)[C@@H](C)[C@@H](O)[C@@H](C)[C@H](OC(C)=O)[C@@H]1C: -0.5%
CN(C)CCCN1c2ccccc2CCc2ccccc21: -12.4%
O=C(O)CCNC(=O)c1ccc(/N=N/c2ccc(O)c(C(=O)O)c2)cc1: -15.4%
CCCNC(C)C(=O)Nc1ccccc1C (stereo not drawn): -7.4%
CN(C)CC[C@@H](c1ccc(Cl)cc1)c1ccccn1: -14.5%

Block 2
Organism: Plasmodium berghei
Action: inhibitor
Cells: Huh-7
Strain: GFP-expressing sporozoites, liver stage
Tested at: 10 µM
Time: 24 h
Baseline: untreated control
Endpoint: infection rate
CN(C)CCOC(=O)C(c1ccccc1)C1(O)CCCC1 (stereo not drawn): 114%
NC[C@H]1O[C@H](O[C@H]2[C@H](O)[C@@H](O[C@H]3O[C@H](CO)[C@@H](O)[C@H](N)[C@H]3O)[C@H](N)C[C@@H]2N)[C@H](N)[C@@H](O)[C@@H]1O: 99.8%
CN(C)/N=N/c1[nH]cnc1C(N)=O: 69.3%
CCCC(=O)Nc1ccc(OCC(O)CNC(C)C)c(C(C)=O)c1 (stereo not drawn): 30.1%
N=C(N)NC(=O)c1nc(Cl)c(N)nc1N: 94.5%
CN(C)CCC=C1c2ccccc2CCc2ccccc21: 112%
NC(=O)NC1NC(=O)NC1=O (stereo not drawn): 88.4%
COc1ccc(C(Cl)=C(c2ccc(OC)cc2)c2ccc(OC)cc2)cc1: 7.02%
O=C(CNC(=O)c1ccc(Cl)cc1)NO: 91.5%
CN(C)CCOC(C)(c1ccccc1)c1ccccn1 (stereo not drawn): 104%
CN(C)[C@@H]1C(O)=C(C(N)=O)C(=O)[C@@]2(O)C(O)=C3C(=O)c4c(O)ccc(Cl)c4[C@@H](O)[C@H]3C[C@@H]12: 66.3%
OC[C@@H](O)[C@@H](O[C@@H]1O[C@H](CO)[C@H](O)[C@H](O)[C@H]1O)[C@H](O)[C@@H](O)CO: 97.5%
CC(C)(Oc1ccc(CCNC(=O)c2ccc(Cl)cc2)cc1)C(=O)O: 107%
CCN(CC)C(=O)c1ccc(O)c(OC)c1: 89.9%
CCCNC(=O)NS(=O)(=O)c1ccc(Cl)cc1: 111%
C[n+]1cc2c3c(ccc2c2ccc4cc5c(cc4c21)OCO5)OCO3: 1.22%

Block 3
Target: Activin receptor type-1 (ACVR1, Homo sapiens, UniProt Q04771)
Read-out: enzyme activity
Action: inhibitor
Tested at: 0.5 µM
Baseline: control
Endpoint: remaining activity
Residues (Q04771 1-509): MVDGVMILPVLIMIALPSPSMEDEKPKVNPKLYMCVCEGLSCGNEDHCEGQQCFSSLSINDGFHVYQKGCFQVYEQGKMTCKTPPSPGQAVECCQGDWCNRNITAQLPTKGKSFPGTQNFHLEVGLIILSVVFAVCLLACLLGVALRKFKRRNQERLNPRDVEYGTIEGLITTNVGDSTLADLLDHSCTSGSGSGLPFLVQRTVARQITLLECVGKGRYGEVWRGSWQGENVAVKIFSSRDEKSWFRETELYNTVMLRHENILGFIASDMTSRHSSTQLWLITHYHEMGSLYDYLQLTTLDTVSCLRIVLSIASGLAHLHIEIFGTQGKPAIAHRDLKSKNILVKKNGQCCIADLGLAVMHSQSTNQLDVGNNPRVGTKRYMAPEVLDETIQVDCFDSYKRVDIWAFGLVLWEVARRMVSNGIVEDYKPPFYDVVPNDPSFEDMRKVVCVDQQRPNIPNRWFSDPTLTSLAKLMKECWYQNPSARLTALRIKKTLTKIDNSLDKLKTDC
c1ccc(-c2n[nH]c3c2oc2ccccc23)cc1: 99.4%
CCCNC(=O)Nc1ccc(Oc2ncnc3cc(OC)c(OC)cc23)cc1Cl: 101%
O=C(c1cc2cc(O)ccc2[nH]1)c1cc2cc(O)ccc2[nH]1: 123%
O=C1Cc2c([nH]c3ccc(Br)cc23)-c2ccccc2N1: 162%
O=C1Nc2ccccc2/C1=C\c1c(Cl)[nH]c2ccccc12: 100%
O=Nc1c(-c2c(O)[nH]c3cc(Br)ccc23)[nH]c2ccccc12: 114%
Cc1ccc(S(=O)(=O)/C=C/C#N)cc1: 101%
Cc1cc(Nc2cc(N3CCN(C)CC3)nc(Sc3ccc(NC(=O)C4CC4)cc3)n2)[nH]n1: 162%
c1ccc2c(-c3ccncc3)c[nH]c2c1: 94.7%
O=C1Nc2ccc(Br)cc2/C1=C/c1cc2c([nH]1)CCCC2: 97%
COc1cccc(-c2cc(=O)c3ccccc3o2)c1N: 92.7%
COc1ccc2c(c1)c(C1=C(c3c[nH]c4ccccc34)C(=O)NC1=O)cn2CCCN(C)C: 98%
COc1ccc(COc2ccc(Cc3cnc(N)nc3N)cc2OC)cc1: 100%
CCCCc1c(-c2ccc(OC)cc2)[nH]c2nccnc12: 86.9%
N#Cc1cnc2cnc(NCc3cccnc3)cc2c1Nc1ccc(F)c(Cl)c1: 95.6%
O=C1NC(=O)c2c1c1c3ccccc3[nH]c1n1cncc21: 103%
O=c1cc(N2CCOCC2)oc2c(-c3ccccc3)cccc12: 91.2%
O=C1NC(=O)c2c1c1c3ccccc3[nH]c1c1[nH]c3cc(Br)ccc3c21: 127%
CN(C)S(=O)(=O)c1ccc2c(c1)/C(=C/c1cc3c([nH]1)CCCC3)C(=O)N2: 98.6%

Single results of other studies
Cc1ccc2nc(CNCCCOc3ccccc3)cc(O)c2c1  Ki (NMDA receptor; receptor binding panel): 1000 nM
C[C@H](c1cccc(C#N)c1)n1cc(Cl)cc(C(N)=O)c1=N  inhibition (Tspo (Rattus norvegicus, UniProt P16257); binding, radioligand binding; 10 µM): -7.87%
